Experimental data pooled from the literature.
A part holds a random share of what one study measured. Substitutions count along the parent as printed.

Set 1 — target: CCNB2, cyclin fold, Cln2 fusion (human); technique: yeast growth competition, sequencing; medium: yeast; notes: weak parent motif; reference: not given; direction: higher = stronger binding; endpoint: normalised enrichment score
Starting sequence: PKN2 docking peptide (human); VSAVRKLDFSDTM
VSAVRKLDFSKTM [D11K]: 0.405
VSAVRKLDSSDTM [F9S]: 0.278
VSQVRKLDFSDTM [A3Q]: 0.257
VSAVRLLDFSDTM [K6L]: 0.104
VSFVRKLDFSDTM [A3F]: 0.676
VSAVAKLDFSDTM [R5A]: -0.00842
VSAVRKLDFSDNM [T12N]: 0.786

Set 2 — technique: protein binding microarray; form: double-stranded DNA, one strand shown; medium: in vitro; concentration: not given; reference: not given; direction: higher = stronger binding; endpoint: E-score
Target: Histone acetyltransferase KAT6A, winged helix 2, GST fusion (KAT6A, Homo sapiens, UniProt Q92794, residues 85-181)
Notes: 8-mer, flanks averaged, mean of 2 arrays, mostly near background
Target sequence (chain): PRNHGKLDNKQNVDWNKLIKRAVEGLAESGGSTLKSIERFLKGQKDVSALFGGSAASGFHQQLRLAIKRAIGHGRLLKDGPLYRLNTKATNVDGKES
AACTTAGG: 0.00504
GACTCTGA: -0.117
ACCGTATG: -0.0644
AAGCTGCT: -0.0467
AAGCCCCG: -0.124
TACGCATA: -0.0899
ACTTTCTC: 0.0245

Set 3 — technique: protein-binding microarray; form: double-stranded DNA, one strand shown; medium: in vitro; concentration: 0.8 µM; notes: whole 60-bp probe, no competitor; direction: higher = stronger binding; endpoint: fluorescence intensity; constant ends, left off below: … GTCTTGATTCGCTTGACGCTGCTG
Target: Centromere-binding protein 1, full length, N-terminal tag (CBF1, Saccharomyces cerevisiae, UniProt P17106, residues 1-351)
Sequence of UniProt P17106 (whole entry, looked up): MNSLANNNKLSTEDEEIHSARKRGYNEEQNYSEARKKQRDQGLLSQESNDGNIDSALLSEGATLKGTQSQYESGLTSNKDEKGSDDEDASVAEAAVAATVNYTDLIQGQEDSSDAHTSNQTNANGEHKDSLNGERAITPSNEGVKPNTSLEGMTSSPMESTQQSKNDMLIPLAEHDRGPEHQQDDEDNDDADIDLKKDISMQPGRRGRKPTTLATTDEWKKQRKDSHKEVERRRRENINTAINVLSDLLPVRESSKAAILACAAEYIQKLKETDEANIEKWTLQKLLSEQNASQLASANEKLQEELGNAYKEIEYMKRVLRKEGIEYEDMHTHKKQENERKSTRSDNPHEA
CTATATTTATGGCATCACGATTATTCTCACCAGTTC: 625 a.u.
CTAGCTATACCGGTGATCACAAGACGTAGTTACTTC: 1160 a.u.
GAATAGTAATTTACACACGAGGTGAGGAATACGTAG: 653 a.u.
CTATGTAAGAACTGTCACGTAGTAACACAATCATTC: 608 a.u.
GAATCTCCTCTCACTCACGTACGGCTCTTAATTTAG: 500 a.u.
GAATGCACAGTGACTCACGTTTTTTTATCAGTCTAG: 780 a.u.
GAACTCACTTTCTGTCACGTGCTCGCATTGCGATAG: 20800 a.u.

Other studies, line by line
PhoQ, residues 284 288 289 292 302 303 TGYLSA  fold induction (PhoP, residues 12 14 15 18 19 SPWRL (Escherichia coli, UniProt P23836); Sort-seq, measured: YFP reporter; E. coli; PhoQ-PhoP variant library, added: 10 µM Mg2+; reference: high Mg2+ state, higher = stronger signaling): 5.92

Some of these lines once more (set 3):
GAATGCACAGTGACTCACGTTTTTTTATCAGTCTAG: 780 a.u.
GAACTCACTTTCTGTCACGTGCTCGCATTGCGATAG: 20800 a.u.
